# Results pooled from the literature.
# Lines come from different studies, so protocols differ. “And” joins repeats or separate records; there may be more than shown. Numbers after ± are the reported error.
# Sequence of UniProt Q9UKI8 (whole entry, looked up): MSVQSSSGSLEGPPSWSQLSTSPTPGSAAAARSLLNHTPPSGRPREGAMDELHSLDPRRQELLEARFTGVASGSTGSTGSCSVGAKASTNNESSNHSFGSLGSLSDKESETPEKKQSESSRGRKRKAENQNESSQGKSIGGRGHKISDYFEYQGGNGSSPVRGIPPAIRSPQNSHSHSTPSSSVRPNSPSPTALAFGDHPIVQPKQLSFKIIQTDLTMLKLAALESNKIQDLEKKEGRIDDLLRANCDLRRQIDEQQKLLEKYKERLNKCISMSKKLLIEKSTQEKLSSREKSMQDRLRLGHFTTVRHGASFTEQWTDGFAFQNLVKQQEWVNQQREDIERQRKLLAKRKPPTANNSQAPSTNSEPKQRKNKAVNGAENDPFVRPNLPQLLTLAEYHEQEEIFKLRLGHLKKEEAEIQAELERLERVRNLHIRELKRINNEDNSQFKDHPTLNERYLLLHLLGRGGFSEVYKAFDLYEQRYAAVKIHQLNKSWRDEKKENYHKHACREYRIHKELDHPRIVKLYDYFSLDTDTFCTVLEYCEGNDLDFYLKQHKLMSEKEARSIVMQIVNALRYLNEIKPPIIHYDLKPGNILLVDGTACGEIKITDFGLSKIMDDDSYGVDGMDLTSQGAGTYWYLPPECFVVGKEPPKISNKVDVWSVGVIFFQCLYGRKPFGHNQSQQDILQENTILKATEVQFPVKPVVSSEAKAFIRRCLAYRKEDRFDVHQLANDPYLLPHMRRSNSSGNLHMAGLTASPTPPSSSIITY
# Sequence of UniProt Q92995 (whole entry, looked up): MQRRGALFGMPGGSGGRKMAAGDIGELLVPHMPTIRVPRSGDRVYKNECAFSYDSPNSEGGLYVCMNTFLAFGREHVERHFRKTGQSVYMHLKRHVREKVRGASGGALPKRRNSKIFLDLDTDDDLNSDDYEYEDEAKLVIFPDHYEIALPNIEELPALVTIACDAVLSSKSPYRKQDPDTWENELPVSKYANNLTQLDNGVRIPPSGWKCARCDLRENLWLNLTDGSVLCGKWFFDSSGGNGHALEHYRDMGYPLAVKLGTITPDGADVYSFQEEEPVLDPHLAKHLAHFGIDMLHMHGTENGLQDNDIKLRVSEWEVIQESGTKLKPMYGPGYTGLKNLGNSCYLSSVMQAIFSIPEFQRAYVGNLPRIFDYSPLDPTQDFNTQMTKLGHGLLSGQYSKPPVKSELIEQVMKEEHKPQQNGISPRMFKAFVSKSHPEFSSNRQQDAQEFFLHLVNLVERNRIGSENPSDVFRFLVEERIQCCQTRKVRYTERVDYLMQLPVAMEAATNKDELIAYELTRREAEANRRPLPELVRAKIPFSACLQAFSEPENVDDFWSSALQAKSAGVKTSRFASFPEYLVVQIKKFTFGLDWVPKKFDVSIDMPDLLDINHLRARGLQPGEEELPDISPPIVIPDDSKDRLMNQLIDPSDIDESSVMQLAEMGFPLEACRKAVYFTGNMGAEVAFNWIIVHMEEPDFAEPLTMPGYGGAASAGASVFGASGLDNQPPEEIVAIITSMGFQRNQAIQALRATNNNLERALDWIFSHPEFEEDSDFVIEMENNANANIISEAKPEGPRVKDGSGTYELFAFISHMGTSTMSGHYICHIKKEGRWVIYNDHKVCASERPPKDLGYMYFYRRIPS
# Sequence of UniProt Q9UBN7 (whole entry, looked up): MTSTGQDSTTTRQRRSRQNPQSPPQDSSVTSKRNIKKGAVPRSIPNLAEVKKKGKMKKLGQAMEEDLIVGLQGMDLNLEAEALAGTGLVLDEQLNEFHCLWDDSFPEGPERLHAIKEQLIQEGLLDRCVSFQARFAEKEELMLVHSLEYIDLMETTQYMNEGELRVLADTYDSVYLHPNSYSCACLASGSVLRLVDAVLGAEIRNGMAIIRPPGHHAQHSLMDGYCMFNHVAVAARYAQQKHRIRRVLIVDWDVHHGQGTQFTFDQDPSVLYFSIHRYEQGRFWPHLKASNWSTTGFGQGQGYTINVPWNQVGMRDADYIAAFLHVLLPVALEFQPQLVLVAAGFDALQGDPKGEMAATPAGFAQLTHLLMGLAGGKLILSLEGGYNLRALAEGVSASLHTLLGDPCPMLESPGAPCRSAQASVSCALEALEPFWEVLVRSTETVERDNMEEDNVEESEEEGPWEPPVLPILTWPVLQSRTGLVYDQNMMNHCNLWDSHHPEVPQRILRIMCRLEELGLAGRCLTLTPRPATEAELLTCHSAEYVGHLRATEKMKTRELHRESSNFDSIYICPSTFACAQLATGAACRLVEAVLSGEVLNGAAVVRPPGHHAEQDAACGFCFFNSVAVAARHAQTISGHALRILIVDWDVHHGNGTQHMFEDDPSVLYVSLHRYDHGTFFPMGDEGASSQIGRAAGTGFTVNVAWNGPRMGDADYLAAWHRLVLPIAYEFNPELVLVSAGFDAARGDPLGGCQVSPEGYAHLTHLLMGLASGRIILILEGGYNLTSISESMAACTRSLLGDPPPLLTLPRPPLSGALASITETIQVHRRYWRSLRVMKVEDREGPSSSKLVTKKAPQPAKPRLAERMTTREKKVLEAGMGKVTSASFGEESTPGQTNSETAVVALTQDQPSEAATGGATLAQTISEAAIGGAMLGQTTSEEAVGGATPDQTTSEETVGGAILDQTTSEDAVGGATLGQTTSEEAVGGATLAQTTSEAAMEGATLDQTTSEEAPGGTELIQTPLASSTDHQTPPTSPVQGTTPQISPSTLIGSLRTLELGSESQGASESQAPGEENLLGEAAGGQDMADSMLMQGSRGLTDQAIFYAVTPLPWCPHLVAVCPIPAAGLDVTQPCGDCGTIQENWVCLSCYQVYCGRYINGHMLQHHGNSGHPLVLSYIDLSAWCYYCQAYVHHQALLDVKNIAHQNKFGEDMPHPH
Compound,target or system,test,test system,conditions,scale,measurement,result
COc1cc2c(cc1OC)-c1cc3ccc(OC)c(OCCN)c3c[n+]1CC2.[Cl-],"PC-9, LLC, H460",qRT-PCR,,"10 µM, 24 h",,PD-L1 mRNA level,no effect
CCn1cc(-c2cc(Cn3ccoc3=N)cc3c2CCN([C@@H](C)c2cc(OC)ccn2)C3=O)c(C(F)(F)F)n1,KP-4,"cell growth, inhibitor",,120 h,,EC50,0.0256 µM
COc1ccc(-n2nc(C(C)=O)s/c2=N\N=C(/C)c2ccc(NC(=O)c3ccc(Cl)cc3)cc2)cc1,HepG2,,,0.625 µM,,toxicity,87.6%
Cc1nn(-c2nc3ccc(Cl)c(Cl)c3[nH]2)c(O)c1C1OC(=O)c2ccccc21 (centres unmarked),RAW-ISG,RT-qPCR,,"10 µM, 312 h, unit not given, added: HT-DNA",reference: DMSO,IFNB1 mRNA level,0.421 and 0.524 and 0.424
CCN1CCN(Cc2ccc(NC(=O)c3ccc(C)c(-c4ccc5nc(NC(=O)C6CC6)cn5c4)c3)cc2C(F)(F)F)CC1,MUTZ5 B-ALL cells,CellTiter-Glo,,"concentration not given, 3 d",,cell proliferation,inhibited
COc1cc(/C=C/C(=O)N2CCC=CC2=O)cc(OC)c1OC,MDA-MB-468,"qRT-PCR, measured: GLUT1",,"30 µM, 6 h",reference: time zero,mRNA level,74.6 ± 15.6%
CCc1n(Cc2ccc3ccccc3c2)c2ccccc2[n+]1Cc1ccc2ccccc2c1,NSCLC cell lines,NCI60 one-dose screen,,10 µM,,mean growth percentage,56%
O=C(/C=C/C=C/C=C/C1CCCCC1)NC1=C[C@@](O)(/C=C/C=C/C=C/C(=O)NC2=C(O)CCC2=O)[C@@H]2O[C@@H]2C1=O,769-P,"cell growth, CellTiter-Glo",,78 h,,GI50,9.42 µM
COc1cnc2cccc(N3CCc4c(cc(Cn5ccnc5C)cc4-c4cn(C)nc4C(F)(F)F)C3=O)c2c1,Lu-99,"cell growth, inhibitor",,120 h,,EC50,4.88 µM
CC/C(=N\NC(=O)NCc1cccc(O)c1)c1ccc(O)c(C)c1O,SK-OV-3,"gene expression, microarray, measured: DKK1",,"10 µM, 24 h",reference: DMSO,log ratio,4.04
CCCCc1n(Cc2ccc3ccccc3n2)cc[n+]1Cc1ccc2ccccc2n1,NSCLC cell lines,NCI60 one-dose,,"10 µM, average over cell lines",,growth,25 to 31.8%
C[C@H]1CN(C2COC2)CCN1c1ccc(Nc2cc(-c3ccnc(N4CCn5c(cc6c5CC(C)(C)C6)C4=O)c3CO)cn(C)c2=O)nc1,TMD8 wild-type,"calcium flux, FLIPR",,"4 h preincubation, added: anti-IgM",,maximum inhibition,94.3%
O=C(O)c1cccnc1Nc1cccc(C(F)(F)F)c1,MCF7 TEAD luciferase reporter,reporter gene,,concentration not given,,inhibition,no inhibition
Cc1c(CNC(=O)c2nn3c(c2Cl)N[C@@H](c2ccccc2)C[C@@H]3C(F)(F)F)cnn1C,MEF with TRE-FLAG-LMNB1,"LMNB1 level, high-content screening",,250 µM,,maximum inhibition,0%
C=CC(=O)Nc1cccc(Oc2nc(Nc3ccc(N4CCN(C)CC4)cc3)nc3ccoc23)c1,TMD8 wild-type,"calcium flux, FLIPR",,"1 h preincubation, added: anti-IgM",,maximum inhibition,54.3%
O=C(C[C@@H](C(F)F)n1ccc(F)n1)N1CCC(O)(Cn2cnc3c(cnn3-c3ccc(F)cc3)c2=O)CC1,CHP-212 resistant,annexin V/PI flow cytometry,,"0.1 µM, 48 h",,late apoptotic cells,6.37% and 11% and 6.27%
CC1(C)CCC(CN2CCN(c3ccc(C(=O)NS(=O)(=O)c4ccc(NCC5CCOCC5)c([N+](=O)[O-])c4)c(Oc4cnc5[nH]ccc5c4)c3)CC2)=C(c2ccc(Cl)cc2)C1,THP-1,"annexin V/PI flow cytometry, measured: annexin V-/PI+",,"0.8 µM, 24 h",,necrotic cells,0.1%
Cc1cc(NC(=O)c2cccc(NC(=O)/C=C/CN(C)C)c2)ccc1Nc1nccc(-c2cccnc2)n1,AP1 reporter HEK293,"AP1 reporter gene, inhibitor",,"10 µM, 6 h, compound kept in medium, unit not given, added: PMA",reference: PMA alone,reporter activity,0.187
c1ccc2[nH]ccc2c1,HCT-8,"RNA-seq, measured: TCP11L2",,concentration not given,,"mRNA level, LS mean",6.43 counts per million
O=C(O)CCC(=O)c1ccc(S(=O)(=O)N2CCCC2)cc1,"Protein deacetylase HDAC6, ZnF-UBD domain (HDAC6, Homo sapiens, UniProt Q9UBN7)",,,,,Kd,51.5 µM
CCCCc1nc(Cl)c(CO)n1Cc1ccc(-c2ccccc2-c2nn[nH]n2)cc1,human PBMC,"RNA-seq, measured: PLAUR mRNA",,"10 µg/mL, 24 h",reference: untreated control,log2 fold change,1.52
O=C(N[C@H]1CC[C@H](C(=O)O)CC1)[C@@H]1NC2(CCCCC2)[C@@]2(C(=O)Nc3cc(Cl)ccc32)[C@H]1c1cccc(Cl)c1F,RS4;11,"qRT-PCR, measured: p53 target genes",,"concentration not given, 3 h",,mRNA level,no effect
COc1cc(C(=O)O[C@@H]2CCCOc3cc(cc(OC)c3OC)C(=O)NCCCN3CCCN(CC2)CC3)cc(OC)c1OC,CMV-specific PBMC,FluoroSpot,,"concentration not given, added: ATP, NLVPMVATV peptide restimulation",reference: control without ATP,granzyme B spot count,108% and 59.4% and 81.1%
O=C(O)CNC(=O)Cc1ccccc1,mouse ventricular cardiomyocytes,,,"100 µM, added: isoproterenol",,sarcomere shortening,0.084 µm and 0.053 µm and 0.102 µm and 0.119 µm and 0.085 µm
CCc1cnc(N2CCC(c3nc(COc4ccc(-n5cnnn5)cc4)cs3)CC2)nc1,HEK293T,"RNA-seq, measured: DNAJB1 mRNA",,"10 µM, 6 h",reference: vehicle,log2 fold change,-0.418
CCn1cc(-c2cc(Cn3ccnc3)cc3c2CCN([C@H](c2cc(OC)ccn2)C2CC2)C3=O)c(C(F)(F)F)n1,769-P,"cell growth, inhibitor",,120 h,,EC50,1.06 µM
CNC(=O)c1ccc(N2C(=S)N(c3ccc(C#N)c(C(F)(F)F)c3)C(=O)C2(C)C)cc1F,VCaP,"cell proliferation, CCK-8",,4000 nM,,inhibition,34.3%
Cc1cc(Nc2ncc(Cl)c(Nc3ccccc3S(=O)(=O)C(C)C)n2)c(OC(C)C)cc1C1CCNCC1,CLB-BAR,"phosphoproteomics LC-MS/MS, measured: ATR phosphorylation",,"200 nM, 60 min",reference: untreated,log2 fold change,-2.82
Cn1c(Nc2nc3ccc(C(F)(F)F)cc3s2)nc2cc(C(=O)NCCOCCO)ccc21,SH-SY5Y,"RNA-seq, measured: SYNJ2 mRNA",,"5 µM, 5 h",reference: untreated cells,fold change,2.97
CC[C@@H]1[C@H](F)C(=O)N[C@@H]1COc1nccc2cc(C(N)=O)c(OC)cc12,"TLK1 (Homo sapiens, UniProt Q9UKI8)","ATP-site probe binding, inhibitor, ActivX ATP probe profiling",THP-1 cell lysate,probe site Lys1,,IC50,1.9 µM
Nc1cccc2c1C(=O)N(C1CCC(=O)NC1=O)C2=O (centres unmarked),MM1.S,XTT,,1.4 µM,reference: untreated,viability,18%
O=C(Nc1c(Cl)cncc1Cl)c1ccc(OC(F)F)c(OCC2CC2)c1,PBMC,MSD,,"0.0001 µM, unit not given, added: PGE2",reference: DMSO,cAMP level difference,-0.72
CC[C@H](C(=O)N1CCCC[C@H]1C(=O)O[C@H](CCc1ccc(OC)c(OC)c1)c1cccc(OCC(=O)NCC(CNC(=O)COc2cccc([C@@H](CCc3ccc(OC)c(OC)c3)OC(=O)[C@@H]3CCCCN3C(=O)[C@@H](CC)c3cc(OC)c(OC)c(OC)c3)c2)CN(C)C)c1)c1cc(OC)c(OC)c(OC)c1,THP-1 expressing FKBP-caspase-4,,,concentration not given,,LDH release,77.2% and 76.5% and 79.2%
Cc1cccc(-c2[nH]c(CNc3ccccc3F)nc2-c2ccc3ncnn3c2)n1,bone marrow CD138+ myeloma cells,XTT,,"1 µM, phenol red-free RPMI",,viability,17%
COCCOCCOCc1n(Cc2ccc3ccccc3n2)c2ccccc2[n+]1Cc1ccc2ccccc2c1,NSCLC cell lines,NCI60 one-dose screen,,10 µM,,mean growth percentage,12.4%
Cc1c(C(=O)NN2CCOCC2)nn(-c2ccc(Cl)cc2Cl)c1-c1ccc(I)cc1,"CHO wild-type cells lacking MOR, membranes",basal G-protein activity,,10 µM,,inhibition,~20%
O=C(O)CCc1nc2ccccc2c2nc(Cc3ccccc3)nn12,"Ubiquitin carboxyl-terminal hydrolase 13, ZnF-UBD domain (USP13, Homo sapiens, UniProt Q92995)",,,,,Kd,> 1000 µM
O=C(O)COCC(=O)O,"hepatocytes, iPSC-derived, line W3","cell viability, RealTime-Glo MT",,"48 h, differentiation day 23",,IC50,14300 µM
CCOc1ccc(N([C@@H](C)C(=O)Nc2ccc(Br)c(C)c2)S(C)(=O)=O)cc1,MEF with TRE-FLAG-LMNB1,"LMNB1 level, high-content screening",,250 µM,,maximum inhibition,19%
c1cnc2c(c1)ccc1cccnc12,HEK293T,,,25 µg/mL,reference: albendazole,TNF-α mRNA level,decreased
C=CCn1c(=O)c2cnc(Nc3ccc(N4CCN(C)CC4)cc3)nc2n1-c1ccc2c(n1)[C@@](O)(CC)CC2,MDA-MB-231,flow cytometry,,concentration not given,,G2/M phase mitotic cells,5.38%
Cc1ccc2c(c1)C(=O)[C@]1(O)CCN(c3ccc4nc(C)ccc4c3)C1=N2.Cl,murine cells,,,"concentration not given, added: cycloheximide",reference: vehicle,PDGFRα turnover slowing,> 3 fold
N#Cc1ccc(Oc2ccc3c(c2)COB3O)cc1,PBMC,MSD,,"0.01 µM, unit not given, added: PGE2",reference: DMSO,cAMP level difference,-2.9
CC(C)NCC(O)c1ccc(O)c(O)c1 (centres unmarked),mouse ventricular cardiomyocytes,,,"dose not given, 0.335 s",,sarcomere length,1.8 µm
CC(C)(c1ccc(O)cc1)c1ccc(O)cc1,HepG2 spheroids,Hoechst flow cytometry,,"40 µM, 24 h",,G2 phase cells,19.1 ± 4.13%
Cn1cc(-n2cnc3c(NCc4nc5cc(Cl)c(Cl)cc5[nH]4)nc(N4CCOCC4)nc32)cn1,MDA-MB-231,"qRT-PCR, measured: RAD51",,"50 nM, 6 h, unit not given",reference: untreated,mRNA level,0.63
CCCc1n(Cc2ccc3ccccc3n2)cc[n+]1Cc1ccc2ccccc2c1.[Cl-],NSCLC cell lines,,,upper end of range,,TGI,≤ 27.6 µM
CCCCN1C[C@H](O)[C@@H](O)[C@@H](O)[C@H]1CO,sample F patient fibroblasts,"GlcCer level lowering, LC-MS/MS, measured: GlcCer d18:1/16:0",,216 h,,IC50,6.9 µM
C=C(C)[C@@H]1CC[C@]2(C)CC[C@]3(C)[C@H](CC[C@@H]4[C@@]5(C)CC[C@H](O)C(C)(C)[C@@H]5CC[C@]43C)[C@@H]12,SIM-A9 mouse microglia,Griess,,"10.7 µM, added: LPS 100 ng/mL",,nitric oxide production inhibition,inactive
Cn1cc(-c2ccc(-c3cncc(Cl)c3N3CCC4(CCNC4=O)CC3)cc2)cn1,COLO 205,"gene expression, microarray, measured: FGFR3 mRNA",,"concentration not given, 2 h",reference: untreated cells,log2 fold change,3.53

# Repeated from above:
Compound,target or system,test,test system,conditions,scale,measurement,result
CCc1n(Cc2ccc3ccccc3c2)c2ccccc2[n+]1Cc1ccc2ccccc2c1,NSCLC cell lines,NCI60 one-dose screen,,10 µM,,mean growth percentage,56%
O=C(/C=C/C=C/C=C/C1CCCCC1)NC1=C[C@@](O)(/C=C/C=C/C=C/C(=O)NC2=C(O)CCC2=O)[C@@H]2O[C@@H]2C1=O,769-P,"cell growth, CellTiter-Glo",,78 h,,GI50,9.42 µM
COc1cnc2cccc(N3CCc4c(cc(Cn5ccnc5C)cc4-c4cn(C)nc4C(F)(F)F)C3=O)c2c1,Lu-99,"cell growth, inhibitor",,120 h,,EC50,4.88 µM
CC/C(=N\NC(=O)NCc1cccc(O)c1)c1ccc(O)c(C)c1O,SK-OV-3,"gene expression, microarray, measured: DKK1",,"10 µM, 24 h",reference: DMSO,log ratio,4.04
